Measured values collected from several papers.
Lines come from different studies, so protocols differ. Values joined by “and” are separate records of one study, mostly repeats; a detail may differ. ± marks the error that the study gave. Values after ≈ are worked out from the molar mass of the structure shown.

CN(CC(C)(C)C)N=O  revertant colonies per plate (Escherichia coli; plate incorporation; WP2uvrA pKM101, methanol; 5000 µg/plate, without S9): 163 and 136
OC(CCN1CC=C(c2ccc(F)cc2)CC1)c1ccc(F)c2ccccc12 (centres unmarked)  induction factor (Salmonella typhimurium; SOS response, SOS/umu test; TA1535/pSK1002, TGA medium; 0.000244 mg/mL, 4 h, without S9; relative to: untreated): 0.9
COc1cccc(-c2n[nH]c(SCc3ccccn3)n2)c1OC  revertant colonies per plate (Salmonella typhimurium; Ames test, plate incorporation; TA1535; 0.13 mg/plate, with rat liver S9): 14
Cc1c(Cl)c(=O)oc2cc(OCCCC[Se]C#N)ccc12  developmental defects (Caenorhabditis elegans; N2 Bristol, NGM with E. coli OP50; 1 µM, 3 days): 0%
Cc1cc(C(=O)NC(C)(C)COc2cccc3c2C(N)=NS(=O)(=O)N3)cc(C)n1  revertant ratio (Salmonella typhimurium; Ames test, initial; TA100; 5000 µg/plate; relative to: solvent control): 1.2
O=c1c(O)c(-c2ccc(O)cc2)oc2cc(O[C@@H]3O[C@H](CO)[C@@H](O)[C@H](O)[C@H]3O)cc(O)c12  LC50 (Artemia salina; 24 h, nauplii): 999 µg/mL (≈ 2230 µM)
COCCN(CCOC)N=O  revertant colonies per plate (Escherichia coli; mutagenicity, Ames plate incorporation; WP2 uvrA pKM101; 150 µg/plate, 3 d, without S9, methanol): 120 ± 18
CC(C)C[C@H](NC(=O)[C@H](Cc1c[nH]cn1)NC(=O)[C@H](Cc1c[nH]cn1)NC(=O)[C@H](Cc1ccc(O)cc1)NC(=O)[C@@H](N)CS)C(=O)N[C@H](C(=O)N[C@@H](CC(C)C)C(=O)N[C@H](C(=O)N[C@H](C(=O)NCC(=O)NCC(=O)N[C@@H](CO)C(=O)O)C(C)C)[C@@H](C)O)C(C)C  body weight (Epstein-Barr virus; B-NDG humanized mouse, EBV-infected; 20 mg/kg, day 14): 20.9 g and 20.5 g and 21.8 g
COc1ccnc(C(=O)N[C@H]2COC(=O)[C@H](Cc3ccccc3)[C@@H](OC(=O)C(C)C)[C@H](C)OC2=O)c1OCOC(=O)C(C)C  LD50 (Colinus virginianus; acute): > 2000 mg/kg
Fc1ccc(C2=CCNCC2)cc1  induction factor (Salmonella typhimurium; genotoxicity, SOS/umu test; TA1535/pSK1002; 0.5 mg/mL, 4 h, without S9, full range): 0.9
COc1cnc(OC)n2nc(NS(=O)(=O)c3c(OCC(F)F)cccc3C(F)(F)F)nc12  bud growth (Triticum aestivum; inhibited, hydroponic germination; seedlings; 50 µg/mL, 4 days): inhibited
O=C(O)C(F)(OC(F)(F)C(F)(F)C(F)(F)F)C(F)(F)F (centres unmarked)  internal concentration (Caenorhabditis elegans; LC-MS/MS; N2 L4 larvae, worm pellet; 500 µM, 48 h): 24.7 µM
[Cl-].[Cl-].[Pt+2].[Ru+2].c1ccc(-c2nccnc2-c2ccccn2)nc1.c1cnc2c(c1)ccc1cccnc12.c1cnc2c(c1)ccc1cccnc12  survival rate (Danio rerio; embryos; 45 µM, 72 h): 70 ± 1.6%
CC(C)N(C)N=O  revertant colonies per plate (Escherichia coli; mutagenicity, Ames plate incorporation; WP2 uvrA pKM101; 50 µg/plate, 3 d, without S9, methanol): 136 ± 15
CC1(F)CN(C(=O)Cn2c(=O)c(C(=O)NCc3ccc(Cl)cc3)cc3nc(N4CCNC4=O)cnc32)C1  selectivity index (Epstein-Barr virus; qPCR; single first test; relative to: CC50 over EC50): 65.9
O=[N+]([O-])c1ccc(N2CCC(NCCC(O)c3ccc(F)c4ccccc34)CC2)c(C(F)(F)F)c1 (centres unmarked)  survival (Salmonella typhimurium; SOS/umu test; TA1535/pSK1002; 0.063 mg/mL, 4 h, with S9, full range): 85.1%
C[C@@H]1O[C@@H](OC[C@H]2O[C@@H](Oc3c(-c4ccc(O)c(O)c4)oc4cc(O)cc(O)c4c3=O)[C@H](O)[C@@H](O)[C@@H]2O)[C@H](O)[C@H](O)[C@H]1O  LC50 (Artemia salina; seawater; 24 h, nauplii): 621 µg/mL (≈ 1020 µM)
O=C(O)C(F)(F)C(F)(F)C(F)(F)C(F)(F)C(F)(F)C(F)(F)C(F)(F)F  concentration (Caenorhabditis elegans; LC-MS/MS; N2 L4 larvae, exposure medium supernatant; 500 µM, 48 h): 302 µM
O=c1oc2c(O)c(O)cc3c(=O)oc4c(O)c(O)cc1c4c23  LC50 (Artemia salina; seawater; 24 h, nauplii): 159 µg/mL (≈ 527 µM)
CN(N=O)c1ccc(F)cc1  revertant colonies per plate (Escherichia coli; mutagenicity, Ames plate incorporation; WP2 uvrA pKM101; 1500 µg/plate, 3 d, without S9, methanol): 84.3 ± 6
CC(=O)N1CCC(C(=O)N2CCN3C(=O)c4cc(-c5ccccc5)ccc4NC(=O)C3C2)CC1 (centres unmarked)  fold increase in revertants (Salmonella typhimurium; TA98; 1581 µg/plate; relative to: vehicle): 1.4
O=[N+]([O-])c1ccc(NC2CCNCC2)c(C(F)(F)F)c1  survival (Salmonella typhimurium; SOS/umu test; TA1535/pSK1002; 0.031 mg/mL, 4 h, without S9, full range): 99.3%
[Cl-].[Cl-].[Pt+2].[Ru+2].c1ccc(-c2nc3ccccc3nc2-c2ccccn2)nc1.c1cnc2c(c1)ccc1cccnc12.c1cnc2c(c1)ccc1cccnc12  survival rate (Danio rerio; embryos; 90 µM, 72 h): 50 ± 2%
O=NN1CCN(C2CCCC2)CC1  revertant colonies per plate (Escherichia coli; mutagenicity, Ames plate incorporation; WP2 uvrA pKM101; 50 µg/plate, 3 d, without S9, methanol): 116 ± 19
O=C1OC[C@H]2OC(O)[C@H](O)[C@@H](O)[C@@H]2OC(=O)c2cc(O)c(O)c(O)c2-c2c(O)c(O)c3oc(=O)c4c(c(O)c(O)c5oc(=O)c2c3c54)-c2c1cc(O)c(O)c2O (mixture of isomers)  LC50 (Artemia salina; seawater; 24 h, nauplii): 941 µg/mL
COC1=CC(=O)c2ccccc2C1=O  mortality (Artemia salina; nauplii, synthetic seawater; 50 µg/mL, 24 h, 5% DMSO): 63%
